Measurements gathered from unrelated publications.
Lines come from different studies, so protocols differ. Numbers after ± are the reported error.
ache: Acetylcholinesterase (ache, Electrophorus electricus, UniProt O42275)
Sequence of UniProt O42275 (whole entry, looked up): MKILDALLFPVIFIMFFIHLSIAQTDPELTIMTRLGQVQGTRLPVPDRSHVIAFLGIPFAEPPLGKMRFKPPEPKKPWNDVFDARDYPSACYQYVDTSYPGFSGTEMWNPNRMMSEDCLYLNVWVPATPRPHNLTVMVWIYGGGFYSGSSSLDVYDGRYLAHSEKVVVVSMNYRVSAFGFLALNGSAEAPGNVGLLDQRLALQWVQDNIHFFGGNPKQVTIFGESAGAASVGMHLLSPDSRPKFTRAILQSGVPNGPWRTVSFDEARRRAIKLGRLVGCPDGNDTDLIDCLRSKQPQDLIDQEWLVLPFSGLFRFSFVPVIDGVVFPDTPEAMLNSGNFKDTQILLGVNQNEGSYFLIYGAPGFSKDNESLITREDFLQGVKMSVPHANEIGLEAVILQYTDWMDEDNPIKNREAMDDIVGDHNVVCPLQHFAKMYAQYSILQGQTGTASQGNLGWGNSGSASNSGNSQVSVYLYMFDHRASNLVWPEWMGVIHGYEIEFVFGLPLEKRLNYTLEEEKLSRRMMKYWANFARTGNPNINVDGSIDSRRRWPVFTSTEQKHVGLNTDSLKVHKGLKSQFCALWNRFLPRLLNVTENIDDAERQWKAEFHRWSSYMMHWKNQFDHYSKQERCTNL
Oprk1: Kappa-type opioid receptor (Oprk1, Rattus norvegicus, UniProt P34975)
Sequence of UniProt P34975 (whole entry, looked up): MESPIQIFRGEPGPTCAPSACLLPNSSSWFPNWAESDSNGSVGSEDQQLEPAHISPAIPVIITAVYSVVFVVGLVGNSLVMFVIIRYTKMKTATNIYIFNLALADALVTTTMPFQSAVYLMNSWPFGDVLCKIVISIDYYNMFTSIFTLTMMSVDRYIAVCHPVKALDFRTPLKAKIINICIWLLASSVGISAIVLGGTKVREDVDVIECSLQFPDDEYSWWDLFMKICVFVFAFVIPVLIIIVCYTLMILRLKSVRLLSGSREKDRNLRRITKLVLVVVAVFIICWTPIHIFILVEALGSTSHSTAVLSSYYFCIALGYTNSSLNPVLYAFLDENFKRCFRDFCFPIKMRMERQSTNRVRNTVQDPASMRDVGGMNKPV
Sequence of UniProt A0R016 (whole entry, looked up): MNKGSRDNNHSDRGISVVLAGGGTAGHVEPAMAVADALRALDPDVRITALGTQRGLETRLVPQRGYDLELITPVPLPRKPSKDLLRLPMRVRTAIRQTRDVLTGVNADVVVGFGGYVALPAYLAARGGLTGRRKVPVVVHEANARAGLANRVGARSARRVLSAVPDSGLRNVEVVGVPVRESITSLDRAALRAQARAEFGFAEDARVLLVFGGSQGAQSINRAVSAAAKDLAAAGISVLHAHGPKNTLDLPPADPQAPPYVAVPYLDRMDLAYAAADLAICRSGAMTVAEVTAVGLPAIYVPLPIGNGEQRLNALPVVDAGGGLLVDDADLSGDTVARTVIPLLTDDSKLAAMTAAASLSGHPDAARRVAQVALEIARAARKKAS
Sequence of UniProt P52895 (whole entry, looked up): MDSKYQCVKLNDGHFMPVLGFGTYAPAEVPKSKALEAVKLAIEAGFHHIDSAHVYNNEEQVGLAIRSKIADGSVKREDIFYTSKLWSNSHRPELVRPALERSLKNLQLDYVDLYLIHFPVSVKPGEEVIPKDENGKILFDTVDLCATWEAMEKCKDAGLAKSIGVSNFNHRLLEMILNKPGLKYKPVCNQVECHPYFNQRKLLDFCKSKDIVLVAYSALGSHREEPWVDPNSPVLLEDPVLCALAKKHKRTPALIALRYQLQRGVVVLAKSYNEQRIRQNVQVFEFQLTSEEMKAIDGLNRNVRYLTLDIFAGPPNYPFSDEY
Sequence of UniProt P0C0V0 (whole entry, unmodified, looked up): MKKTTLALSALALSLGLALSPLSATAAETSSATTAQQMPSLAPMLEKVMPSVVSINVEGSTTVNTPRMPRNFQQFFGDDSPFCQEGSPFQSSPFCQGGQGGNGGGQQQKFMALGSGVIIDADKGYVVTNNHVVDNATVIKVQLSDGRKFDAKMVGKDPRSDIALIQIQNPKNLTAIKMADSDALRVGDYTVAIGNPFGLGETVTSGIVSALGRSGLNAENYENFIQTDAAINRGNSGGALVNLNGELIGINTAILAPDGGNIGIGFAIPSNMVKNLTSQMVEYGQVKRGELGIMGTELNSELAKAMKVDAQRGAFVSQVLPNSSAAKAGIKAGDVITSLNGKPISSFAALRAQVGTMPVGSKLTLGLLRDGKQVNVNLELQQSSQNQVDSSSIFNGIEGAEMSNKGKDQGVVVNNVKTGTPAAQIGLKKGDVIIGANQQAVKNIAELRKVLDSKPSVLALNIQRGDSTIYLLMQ
Sequence of UniProt P70343 (whole entry, looked up): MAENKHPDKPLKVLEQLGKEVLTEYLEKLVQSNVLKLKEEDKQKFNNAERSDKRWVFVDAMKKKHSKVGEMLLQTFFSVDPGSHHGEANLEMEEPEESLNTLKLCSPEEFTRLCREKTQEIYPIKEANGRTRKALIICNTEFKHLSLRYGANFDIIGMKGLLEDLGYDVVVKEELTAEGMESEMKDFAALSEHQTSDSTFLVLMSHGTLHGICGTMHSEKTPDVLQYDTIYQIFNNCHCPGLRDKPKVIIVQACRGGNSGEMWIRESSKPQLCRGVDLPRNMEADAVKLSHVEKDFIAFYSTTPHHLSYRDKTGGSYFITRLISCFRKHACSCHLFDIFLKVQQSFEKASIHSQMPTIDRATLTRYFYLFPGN
Sequence of UniProt O66465 (whole entry, looked up): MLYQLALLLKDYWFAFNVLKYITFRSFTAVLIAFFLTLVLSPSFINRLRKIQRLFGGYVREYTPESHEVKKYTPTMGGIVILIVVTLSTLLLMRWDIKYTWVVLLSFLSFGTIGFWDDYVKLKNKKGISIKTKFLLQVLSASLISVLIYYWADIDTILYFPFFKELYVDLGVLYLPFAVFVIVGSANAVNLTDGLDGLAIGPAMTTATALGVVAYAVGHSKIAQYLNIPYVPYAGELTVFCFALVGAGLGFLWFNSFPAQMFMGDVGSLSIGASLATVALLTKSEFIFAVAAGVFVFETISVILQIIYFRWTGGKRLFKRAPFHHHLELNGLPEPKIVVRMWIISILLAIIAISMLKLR
Sequence of UniProt P00691 (whole entry, looked up): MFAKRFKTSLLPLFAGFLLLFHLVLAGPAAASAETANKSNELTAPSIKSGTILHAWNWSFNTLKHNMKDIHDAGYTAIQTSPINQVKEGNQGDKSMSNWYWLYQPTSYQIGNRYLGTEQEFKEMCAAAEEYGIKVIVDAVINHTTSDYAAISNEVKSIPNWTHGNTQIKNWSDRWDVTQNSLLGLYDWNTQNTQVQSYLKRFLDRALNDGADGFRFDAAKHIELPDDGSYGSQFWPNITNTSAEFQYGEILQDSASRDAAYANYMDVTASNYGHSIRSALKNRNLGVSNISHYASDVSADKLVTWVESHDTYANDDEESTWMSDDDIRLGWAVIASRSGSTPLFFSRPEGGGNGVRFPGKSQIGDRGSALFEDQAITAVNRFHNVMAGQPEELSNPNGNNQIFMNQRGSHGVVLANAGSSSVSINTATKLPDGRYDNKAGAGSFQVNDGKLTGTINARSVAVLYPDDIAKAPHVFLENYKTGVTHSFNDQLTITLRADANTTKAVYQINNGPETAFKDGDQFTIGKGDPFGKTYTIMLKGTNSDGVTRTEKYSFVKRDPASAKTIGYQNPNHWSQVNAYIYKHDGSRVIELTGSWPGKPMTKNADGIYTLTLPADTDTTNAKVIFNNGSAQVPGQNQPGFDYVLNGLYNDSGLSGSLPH
Sequence of UniProt P56817 (whole entry, looked up): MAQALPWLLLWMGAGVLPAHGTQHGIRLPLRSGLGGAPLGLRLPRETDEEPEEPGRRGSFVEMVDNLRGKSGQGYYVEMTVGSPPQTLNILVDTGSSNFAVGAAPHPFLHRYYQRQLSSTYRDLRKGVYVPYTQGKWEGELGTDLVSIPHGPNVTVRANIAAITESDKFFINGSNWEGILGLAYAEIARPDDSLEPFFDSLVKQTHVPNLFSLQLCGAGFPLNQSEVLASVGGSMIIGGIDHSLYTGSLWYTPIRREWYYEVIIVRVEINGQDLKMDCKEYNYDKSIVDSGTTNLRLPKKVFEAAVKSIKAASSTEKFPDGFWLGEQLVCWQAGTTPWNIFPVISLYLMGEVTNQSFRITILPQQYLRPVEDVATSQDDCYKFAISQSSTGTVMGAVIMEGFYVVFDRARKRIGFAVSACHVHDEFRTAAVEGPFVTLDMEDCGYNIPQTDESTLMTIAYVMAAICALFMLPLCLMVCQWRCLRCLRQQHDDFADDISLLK
Sequence of UniProt P35372 (whole entry, unmodified, looked up): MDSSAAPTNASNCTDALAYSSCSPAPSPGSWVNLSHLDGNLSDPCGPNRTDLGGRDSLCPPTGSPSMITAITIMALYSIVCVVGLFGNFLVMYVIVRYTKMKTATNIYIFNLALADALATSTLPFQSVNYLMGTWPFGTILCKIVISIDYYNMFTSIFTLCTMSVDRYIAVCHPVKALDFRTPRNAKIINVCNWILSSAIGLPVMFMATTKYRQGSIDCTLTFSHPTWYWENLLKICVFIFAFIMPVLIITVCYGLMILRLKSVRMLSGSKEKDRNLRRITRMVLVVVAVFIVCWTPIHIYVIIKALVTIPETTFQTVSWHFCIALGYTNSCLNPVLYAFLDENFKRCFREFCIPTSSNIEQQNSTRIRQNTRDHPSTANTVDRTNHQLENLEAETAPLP
Sequence of UniProt P11229 (whole entry, looked up): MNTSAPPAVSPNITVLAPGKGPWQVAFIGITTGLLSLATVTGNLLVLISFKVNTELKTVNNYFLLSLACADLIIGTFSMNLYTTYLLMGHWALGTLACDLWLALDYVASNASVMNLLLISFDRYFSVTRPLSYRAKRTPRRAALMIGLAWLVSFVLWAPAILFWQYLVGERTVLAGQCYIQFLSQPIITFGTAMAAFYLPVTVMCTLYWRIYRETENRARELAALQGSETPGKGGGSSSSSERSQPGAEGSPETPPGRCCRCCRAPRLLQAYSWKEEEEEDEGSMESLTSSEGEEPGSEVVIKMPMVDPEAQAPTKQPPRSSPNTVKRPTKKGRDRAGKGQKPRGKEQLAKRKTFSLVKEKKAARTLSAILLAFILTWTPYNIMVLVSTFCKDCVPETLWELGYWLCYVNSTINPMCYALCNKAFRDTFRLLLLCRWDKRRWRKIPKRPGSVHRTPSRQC

SMILES | target | assay | test system | conditions | how to read | quantity | value
CSCC[C@H](NC(=O)[C@@H](NC(=O)[C@H](CC(C)C)NC(=O)[C@@H](NC(=O)[C@H](Cc1c[nH]cn1)NC(=O)CCCCCNC(=O)[C@H](CCCNC(=N)N)NC(=O)[C@H](CCCNC(=N)N)NC(=O)[C@H](CCCNC(=N)N)NC(=O)[C@H](CCC(N)=O)NC(=O)[C@H](CCCNC(=N)N)NC(=O)[C@H](CCCNC(=N)N)NC(=O)[C@H](CCCCN)NC(=O)[C@H](CCCCN)NC(=O)[C@H](CCCNC(=N)N)NC(=O)CNC(=O)[C@@H](N)Cc1ccc(O)cc1)C(C)C)C(C)C)C(=O)N[C@@H](CS)C(=O)N[C@@H](C)C(=O)N[C@H](C(N)=O)[C@@H](C)O | VCP (Homo sapiens, UniProt P55072) | binding, BLI |  |  |  | koff | 0.023 s⁻¹
CC(C)P(=[Se])(NP(=[Se])(C(C)C)C(C)C)C(C)C | Alpha-amylase (Bacillus subtilis, UniProt P00691) | fluorescence quenching |  | concentration not given, 304 K |  | number of binding sites | 0.72 ± 0.06
Clc1ccc2c(c1)N=C(N1CCNCC1)c1ccccc1N2 | CHRM3 (Homo sapiens, UniProt P20309, A239G/Y149C) | calcium signal, agonist, FLIPR |  |  | baseline: clozapine N-oxide | Emax | 95%
CCCCCCCCCCCCCCOc1ccc(CP(=O)(O)O)cc1 | Autotaxin (ENPP2, Homo sapiens, UniProt Q13822) | inhibitor |  | 10 µM, 2 h, with: FS-3 1 µM | baseline: control | remaining activity | 30.4%
CC[C@H](C)[C@H](NC(=O)[C@H](CCC(N)=O)NC(=O)[C@H](CC(C)C)NC(=O)[C@@H](NC(=O)CNC(=O)[C@H](Cc1ccc(O)cc1)NC(=O)[C@H](CC(=O)O)NC(=O)[C@@H](NC(=O)[C@H](CO)NC(=O)CNC(=O)[C@H](CC(=O)O)NC(=O)[C@@H](NC(=O)[C@H](CC(N)=O)NC(=O)[C@H](CCCNC(=N)N)NC(=O)[C@H](CC(N)=O)NC(=O)[C@@H](NC(=O)[C@H](C)NC(=O)[C@H](CCC(N)=O)NC(=O)[C@@H](NC(=O)[C@H](CC(N)=O)NC(=O)[C@H](Cc1ccccc1)NC(=O)[C@H](CC(N)=O)NC(=O)[C@H](CO)NC(=O)[C@H](CCC(=O)O)NC(=O)[C@H](Cc1ccccc1)NC(=O)[C@H](CCCCN)NC(=O)[C@H](C)NC(=O)[C@H](C)NC(=O)[C@H](CO)NC(=O)[C@@H](NC(=O)[C@H](Cc1c[nH]c2ccccc12)NC(=O)[C@H](CC(N)=O)NC(=O)CNC(=O)[C@H](CC(C)C)NC(=O)[C@H](CO)NC(=O)[C@H](Cc1ccc(O)cc1)NC(=O)CNC(=O)[C@H](CCCNC(=N)N)NC(=O)[C@H](Cc1ccc(O)cc1)NC(=O)[C@H](CC(N)=O)NC(=O)[C@@H](N)CC(=O)O)C(C)C)[C@@H](C)O)[C@@H](C)O)[C@@H](C)O)[C@@H](C)O)[C@@H](C)CC)C(=O)O | Periplasmic serine endoprotease DegP (degP, Escherichia coli, UniProt P0C0V0, S236A) | oligomer formation, sedimentation velocity |  | 30 µM, with: protein 20 µM |  | 30-mers fraction | 3%
Fc1ccc(Nc2c3c(nc4ccccc24)CCCC3)cc1 | ache | enzyme activity, inhibitor, Ellman |  | 50 µM |  | inhibition | 39%
O=C(/C=C/c1ccccc1Br)c1cc2ccccc2oc1=O | Beta-secretase 1 (BACE1, Homo sapiens, UniProt P56817) | enzyme activity, inhibitor, fluorescence |  | 10 µM |  | remaining activity | 92.5%
CC(=O)N[C@H]1[C@@H](OP(=O)(O)OP(=O)(O)OC/C=C(/C)CC/C=C(/C)CC/C=C(/C)CC/C=C(/C)CC/C=C(/C)CC/C=C(/C)CC/C=C(/C)CC/C=C(/C)CC/C=C(\C)CC/C=C(\C)CCC=C(C)C)O[C@H](CO)[C@@H](O)[C@@H]1O[C@H](C)C(=O)N[C@@H](C)C(=O)N[C@H](CCC(=O)N[C@@H](CCCCNC(=O)OCCCCCCNC(=S)Nc1ccc(NS(=O)(=O)c2cccc3c(N(C)C)cccc23)cc1)C(=O)N[C@H](C)C(=O)N[C@H](C)C(=O)O)C(=O)O | UDP-N-acetylglucosamine--N-acetylmuramyl-(pentapeptide) pyrophosphoryl-undecaprenol N-acetylglucosamine transferase (murG, Mycolicibacterium smegmatis, UniProt A0R016) | substrate |  | with: UDP-GlcNAc 46.9 µM |  | Km | 13 ± 3 µM
COC(=O)C1C(OC(c2ccc(Cl)cc2)c2ccc(Cl)cc2)CC2CCC1N2C (single isomer, unassigned) | rat L-type calcium channel | binding, radioligand displacement | rat cortex | dihydropyridine site, inactive if below 75% at 10000 nM, with: [3H]nitrendipine |  | Ki | inactive
CSCC[C@H](NC(=O)[C@H](CCCNC(=N)N)NC(=O)[C@H](CO)NC(=O)[C@@H](NC(=O)[C@H](CC(=O)O)NC(=O)[C@H](CC(=O)O)NC(=O)CCCCCNC(=O)c1ccc2c(c1)C(=O)OC21c2ccc(O)cc2Oc2cc(O)ccc21)[C@@H](C)O)C(=O)N[C@@H](CCC(=O)O)C(=O)N[C@@H](CCCCN)C(=O)N[C@H](C(=O)N[C@@H](CC(=O)O)C(=O)O)C(C)C | DnaJ homolog subfamily C member 7 (Homo sapiens, UniProt Q99615) | fluorescence polarization |  | pH 7.4 | baseline: wild-type tracer | affinity decrease | ≥ 3 fold
COc1ccc2cc1Oc1ccc(cc1)C[C@H]1c3cc(c(OC)cc3CC[N@+]1(C)Cc1ccc3c(c1)C(=O)c1ccccc1C3=O)Oc1c(OC)c(OC)cc3c1[C@H](C2)[N@@+](C)(Cc1ccc2c(c1)C(=O)c1ccccc1C2=O)CC3 | poly(dA)·poly(dT) 18-bp dsDNA | DNA binding, ethidium bromide displacement | phosphate buffer, 10% DMSO | pH 7.2, 25 °C, dsDNA 10 µM, 10 mM NaCl, with: ethidium bromide 5 µM |  | Stern-Volmer constant | 51700 M⁻¹
CC(=O)N[C@@H](Cc1c[nH]c2ccccc12)C(=O)N[C@@H](CCC(=O)O)C(=O)N[C@@H](Cc1c[nH]cn1)C(=O)N[C@@H](CC(=O)O)C(=O)Nc1ccc2c(C)cc(=O)oc2c1 | Caspase-4 (Casp4, Mus musculus, UniProt P70343) | substrate |  | concentration not given |  | Vmax | 1430 ± 73.6 RFU/min
CCCC[C@H](NC=O)C(=O)N[C@@H](CCCC)C(=O)N[C@@H](Cc1c[nH]c2ccccc12)C(=O)N[C@@H](CCC(=O)O)C(=O)N[C@@H](CC(=O)O)C(=O)N[C@@H](Cc1c[nH]c2ccccc12)C(=O)N[C@H](C(=O)NCC(=O)N[C@@H](Cc1c[nH]c2ccccc12)C(=O)N[C@H](C(=O)O)[C@@H](C)CC)C(C)C | FPR1 (Homo sapiens, UniProt P21462) | receptor downregulation | CHO cells |  |  | Ki/EC50 ratio | > 10 fold
O=C(O)COc1ccc(Cl)cc1 | Chloride channel protein (Torpedo marmorata, UniProt P21564, C212S) | chloride current, inhibitor, inside-out patch clamp |  | 20 mM, 140 mV, unit not given | baseline: control current | remaining current | 0.89
COC(=O)N(C)[C@@H](Cc1ccccc1)C(=O)N[C@@H](Cc1ccccc1)C(=O)N[C@@H](Cc1ccc2ccccc2c1)C(=O)N[C@@H](CCCNC(=N)N)C(=O)N[C@@H](CC(C)C)C(=O)N[C@@H](CCCNC(=N)N)C(=O)N[C@@H](CCCNC(=N)N)C(=O)N[C@H](C)C(=O)N[C@@H](CCCNC(=N)N)C(=O)N1CCC[C@H]1C(=O)N[C@@H](CCCCN)C(N)=O | Oprk1 | agonist | CHO cells | 10 µM | baseline: dynorphin A(1-13) amide | adenylyl cyclase activity | 109 ± 10%
Cc1cc(O)cc(C)c1C[C@@H]1NC(=O)[C@H](CCCCN)NC(=O)[C@H](Cc2ccccc2)NC(=O)[C@@H](CCCCNC(=N)N)NC1=O | mu opioid receptor, guinea pig | antagonist | guinea pig ileum |  |  | Ke | 5.16 ± 1.24 nM
O=P1(O)OC[C@H]2O[C@@H](n3cnc4cncnc43)[C@H](O)[C@@H]2OP(=O)(O)OC[C@H]2O[C@@H](n3cnc4cncnc43)[C@H](O)[C@@H]2O1 | ydaO riboswitch wild type (Bacillus subtilis) | competition gel-shift |  | concentration not given | baseline: c-di-AMP, higher = weaker binding | binding affinity fold loss | 5300
CC(C)CC(NC(=O)C(NC(=O)NC(C(=O)O)C(C)C)C1CCNC(=N)N1)C(=O)NCCCNC(C(=O)O)C(OC1OC(CN)C(O)C1O)C1OC(n2ccc(=O)[nH]c2=O)C(O)C1O (stereo not drawn) | mraY (Aquifex aeolicus, UniProt O66465) | isothermal titration calorimetry |  | concentration not given, wild type, with: Mg2+ |  | binding entropy | -11.5 ± 9.8 cal/mol/K
N=C(N)NCCC[C@@H]1NC(=O)[C@H](CCCNC(=N)N)NC(=O)[C@H](NC(=O)[C@H](Cc2ccccc2)NC(=O)CNC(=O)CNC(=O)[C@H](Cc2ccc(O)cc2)NCc2ccccc2)CC(=O)NCC[C@@H](C(=O)N[C@@H](CCCNC(=N)N)C(=O)N2CCC[C@H]2C(=O)N[C@@H](CCCCN)C(N)=O)NC1=O | Oprk1 | binding |  |  | baseline: zyklophin | relative affinity | 0.24
C[C@@H](O)[C@H](NC(=O)[C@H]1NC(=O)[C@H]([C@@H](C)O)NC(=O)[C@H](CCCN)NC(=O)[C@@H](Cc2c[nH]c3ccccc23)NC(=O)[C@H](Cc2ccc(O)cc2)NC(=O)[C@@H](NC(=O)[C@H](N)Cc2ccccc2)CSSC1(C)C)C(N)=O | OPRM1 (Homo sapiens, UniProt P35372, C348A/C353A) |  |  |  | baseline: OPRM1 over human MOR | Ki ratio | 0.06
Cc1ccc(Cn2cc(C(=O)N[C@H]3CCCC[C@@H]3O)c3c(F)cc(F)cc32)cn1 | CHRM1 (Homo sapiens, UniProt P11229) | calcium mobilization, positive allosteric modulator | CHO | with: acetylcholine EC20 | baseline: acetylcholine maximum | maximal response | 83 ± 6%
COCCN1COc2c(cc3c4c(c(=O)oc3c2C)CCC4)C1 | ache | peripheral site binding |  | 0.24 µM |  | propidium displacement | 0%
O=C(CCS(=O)O)c1ccccc1 | Beta-lactamase (ampC, Escherichia coli K-12, UniProt P00811) |  |  |  |  | ligand efficiency | 0.43
C[C@]12CC[C@@H]3c4cc(Cl)c(O)c(Cl)c4CC[C@H]3[C@@H]1CCC2=O | AKR1C2 (Homo sapiens, UniProt P52895) | enzyme activity, inhibitor, absorbance |  | 10 µM, pH 9 |  | inhibition | 23.4%

For quick reference, copied from above:
SMILES | target | assay | test system | conditions | how to read | quantity | value
COCCN1COc2c(cc3c4c(c(=O)oc3c2C)CCC4)C1 | ache | peripheral site binding |  | 0.24 µM |  | propidium displacement | 0%
CSCC[C@H](NC(=O)[C@@H](NC(=O)[C@H](CC(C)C)NC(=O)[C@@H](NC(=O)[C@H](Cc1c[nH]cn1)NC(=O)CCCCCNC(=O)[C@H](CCCNC(=N)N)NC(=O)[C@H](CCCNC(=N)N)NC(=O)[C@H](CCCNC(=N)N)NC(=O)[C@H](CCC(N)=O)NC(=O)[C@H](CCCNC(=N)N)NC(=O)[C@H](CCCNC(=N)N)NC(=O)[C@H](CCCCN)NC(=O)[C@H](CCCCN)NC(=O)[C@H](CCCNC(=N)N)NC(=O)CNC(=O)[C@@H](N)Cc1ccc(O)cc1)C(C)C)C(C)C)C(=O)N[C@@H](CS)C(=O)N[C@@H](C)C(=O)N[C@H](C(N)=O)[C@@H](C)O | VCP (Homo sapiens, UniProt P55072) | binding, BLI |  |  |  | koff | 0.023 s⁻¹
